Experimental data of several laboratories.
Target: Serine/threonine-protein kinase PAK 2 (PAK2, Homo sapiens, UniProt Q13177)
UniProt Q13177, sequence (whole entry, looked up): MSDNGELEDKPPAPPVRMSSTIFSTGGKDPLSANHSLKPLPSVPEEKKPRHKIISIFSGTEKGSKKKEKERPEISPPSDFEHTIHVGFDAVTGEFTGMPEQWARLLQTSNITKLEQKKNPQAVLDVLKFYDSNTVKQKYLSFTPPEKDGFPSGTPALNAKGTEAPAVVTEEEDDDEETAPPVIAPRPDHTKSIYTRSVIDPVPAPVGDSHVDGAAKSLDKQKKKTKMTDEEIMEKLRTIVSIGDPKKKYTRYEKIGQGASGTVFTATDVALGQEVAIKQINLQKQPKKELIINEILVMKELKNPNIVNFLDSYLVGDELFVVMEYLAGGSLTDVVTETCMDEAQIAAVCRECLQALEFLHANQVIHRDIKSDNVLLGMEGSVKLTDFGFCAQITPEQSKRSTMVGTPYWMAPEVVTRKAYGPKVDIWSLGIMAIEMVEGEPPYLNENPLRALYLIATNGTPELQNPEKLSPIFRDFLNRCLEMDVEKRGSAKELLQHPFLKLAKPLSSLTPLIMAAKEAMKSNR

CS(=O)(=O)Nc1cccc(-c2csc3cnc(Nc4ccc(N5CCN(CCCCCOc6cccc7c6C(=O)N(C6CCC(=O)NC6=O)C7=O)CC5)cc4)nc23)c1 (centres unmarked)
inhibition (kinase probe labelling, binder, KiNativ ATP-acylphosphate LC-MS; MOLT-4 live cells; 1 µM): -2.87%

CCn1cc(C(=O)O)c(=O)c2c(N)c(F)c(NC3CCCCC3)cc21
inhibition (kinase activity; 0.1 µM, added: ATP at Km): 6.4%

Cc1ccc(-c2c(/C=C(\C#N)C(=O)NC(C)C)n(CCCO)c3ncnc(N)c23)cc1
remaining binding (cell-free assay, competition with immobilised ligand; 1 µM): 91%

Cc1cnc2nc1Nc1cccc(c1)COC/C=C/COCc1cc(ccc1OCCN1CCOCC1)N2
remaining binding (binding; 0.1 µM): 91%

NC(=O)C[C@H]1CCc2sc3ncnc(O[C@H]4CC[C@H](N5CCOCC5)CC4)c3c21
inhibition (enzyme activity, inhibitor; 10 µM): 2%

COc1ccc(O)cc1-c1c[nH]c2ncc(-c3cncc(C(=O)N(C)C)c3)cc12
inhibition (binding, competition with immobilised ligand; 0.2 µM): -1.02%

C=C1CCCCCCCCCC(CO)C1=O (centres unmarked)
remaining binding (cell-free assay, competition with immobilised ligand; 10 µM): 100%

CN1CC[C@@H](COc2cnc(C#N)cc2-c2ccn3nc(NC(=O)C4CC4)cc3c2)C1
inhibition (enzyme activity, inhibitor; 1 µM): 19%

COc1c(OCCCN2CCOCC2)ccc2c1N=C(NC(=O)c1cnc(N)nc1)N1CCN=C21
remaining activity (kinase activity, inhibitor; 1 µM; reference: untreated control): 128%

C=CC(=O)N1CCCC(n2c(=O)c3ncccc3n(Cc3ccc(Oc4ccccc4)cc3)c2=O)C1 (centres unmarked)
remaining binding (cell-free assay, competition with immobilised ligand; 1 µM): 83%

Cc1nc2c(F)cc(-c3nc(Nc4ccc(CNC(=O)CCCCCCC(=O)NO)cc4)ncc3F)cc2n1C(C)C
inhibition (enzyme activity, inhibitor; 1 µM): 68%

COc1cc(Nc2nccc(-c3cnn4nc(OC)ccc34)n2)cc(C(F)(F)F)c1
remaining binding (binding, competition with immobilised ligand; 1 µM): 100%

CC(C)=CC1OC(C)(C)C2C=C3C(=O)C(Cl)=CC(O)C3C3C(O)C4OC4C(=O)C132 (centres unmarked)
remaining binding (cell-free assay, competition with immobilised ligand; 10 µM): 95%

CNC(=O)C[C@H](Cc1ccc(C#N)cc1)NC(=O)c1cc(-c2ccc(CN[C@H](C)c3ccc(C)cc3)o2)ccc1Cl
activity vs control (enzyme activity, inhibitor; 1 µM): 100%

Repeated from above:
Cc1cnc2nc1Nc1cccc(c1)COC/C=C/COCc1cc(ccc1OCCN1CCOCC1)N2
remaining binding (binding; 0.1 µM): 91%
